# Results gathered from unrelated publications.
# Parts stem from different laboratories: compare values within a part only. Substitutions count along the parent as printed.

# Sample 1 — method: protein binding microarray; form: double-stranded DNA, one strand shown; sample: in vitro; concentration: not given; relative to: not given; direction: higher = stronger binding
# Target: Histone acetyltransferase KAT6A, winged helix 2, GST fusion (KAT6A, Homo sapiens, UniProt Q92794, residues 85-181)
# Setting: 8-mer, flanks averaged, mean of 2 arrays, mostly near background
# Target sequence (chain): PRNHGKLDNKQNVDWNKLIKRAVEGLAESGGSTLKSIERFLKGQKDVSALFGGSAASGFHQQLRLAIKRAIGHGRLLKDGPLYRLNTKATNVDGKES
Oligonucleotide,E-score
CTAACTAC,-0.112
CACTTTTC,-0.0946
TCTAAACA,-0.0572
GCAGATAA,0.102
CGACTAAA,-0.211
CTGTGACA,0.0114
CTCCTGCC,0.153
AACACACA,0.0306
CCCTGAGA,-0.135
AAGGGATC,-0.18
ACGAATAC,0.0463
GGAGTAGA,0.059
CCCCCTCG,0.165
TGTGTGAA,-0.0353
GCGAGACC,0.136
AACTGGCA,0.0576

# Sample 2 — target: CCNA1, cyclin fold, Cln2 fusion (human); method: yeast growth competition, sequencing; sample: yeast; setting: weak parent motif; relative to: not given; direction: higher = stronger binding
# Parent: NPAT docking peptide (human); PCHRRVLCFDSTT; partner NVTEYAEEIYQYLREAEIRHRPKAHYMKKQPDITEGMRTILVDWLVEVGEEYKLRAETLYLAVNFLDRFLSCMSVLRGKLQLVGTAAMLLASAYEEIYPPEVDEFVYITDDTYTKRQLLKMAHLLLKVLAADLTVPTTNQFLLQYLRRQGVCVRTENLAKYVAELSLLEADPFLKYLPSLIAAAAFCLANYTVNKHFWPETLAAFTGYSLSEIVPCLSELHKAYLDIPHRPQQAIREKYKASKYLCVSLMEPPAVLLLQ
Substitution,normalised enrichment score
PCHRRVLCFASTT [D10A],0.269
ACHRRVLCFDSTT [P1A],-0.213
PCHRRVLCFDSAT [T12A],0.376
PCHRRVLAFDSTT [C8A],0.228
PCHRKVLCFDSTT [R5K],0.268
PCARRVLCFDSTT [H3A],0.342
PAHRRVLCFDSTT [C2A],0.243
PCHRAVLCFDSTT [R5A],0.211
PCHRRVLCLDSTT [F9L],-0.246
PCHRAVACFDSTT [R5A L7A],0.12

# Sample 3 — method: aptamer microarray, sandwich; form: DNA with 2'F-ANA; sample: in vitro; concentration: 200 nM; together with: Cy3 exosite-II aptamer, 400 nM; direction: higher = stronger binding; oligonucleotide: GGTTGGTGTGGTTGG
# Target: Prothrombin, mature alpha-thrombin (F2, Homo sapiens, UniProt P00734)
# Setting: whole 15-mer aptamer, many near background
Modification,mean fluorescence intensity
2'F-ANA at 2 10 11 13 14,87.2 a.u.
2'F-ANA at 3 7 8 10 11 12 14,383 a.u.
2'F-ANA at 2 3 5 6 8 9 11 12 13 15,127 a.u.
2'F-ANA at 8 9,582 a.u.
2'F-ANA at 2 4 5 6 9 10 11 13 14,47.9 a.u.
2'F-ANA at 1 3 4 7 8 11 12 13 14,90.2 a.u.
2'F-ANA at 2 3 4 7 8 9 10 12 13 14 15,180 a.u.
2'F-ANA at 2 5 6 10 12 14 15,50.5 a.u.
2'F-ANA at 2 3 5 10 11 12,65.2 a.u.
2'F-ANA at 1 2 3 5 8 15,74.7 a.u.
2'F-ANA at 6 7 8 10 13 15,140 a.u.
2'F-ANA at 1 2 4 6 10 11,88.4 a.u.
2'F-ANA at 5 6 9 12,173 a.u.
2'F-ANA at 1 2 6 7 8 10 11 12 15,65.9 a.u.
2'F-ANA at 1 3 4 8 9 12 13 14,71.8 a.u.
2'F-ANA at 1 2 3 6 10 13 15,58.2 a.u.
2'F-ANA at 1 2 3 5 6 7 12 15,109 a.u.
2'F-ANA at 4 5 6 7 10 12,53.2 a.u.
2'F-ANA at 2 4 5 7 10 13 15,85.6 a.u.
2'F-ANA at 2 5 8 10 11,50.9 a.u.
2'F-ANA at 4 5 6 7 8 9 11,74.6 a.u.
2'F-ANA at 1 4 6 7 8 9 10 12 13 15,66.6 a.u.
2'F-ANA at 1 3 5 7 8 10 11 12 13 15,52.5 a.u.
2'F-ANA at 4 5 8 9 13,72 a.u.

# Sample 4 — target: CEP164, C-terminal peptide (human); method: DHFR complementation, deep sequencing; sample: yeast; relative to: wild type; direction: higher = weaker binding
# Setting: single substitutions, model-inferred values
# Parent: PDZK1, PDZ domain 2 (human); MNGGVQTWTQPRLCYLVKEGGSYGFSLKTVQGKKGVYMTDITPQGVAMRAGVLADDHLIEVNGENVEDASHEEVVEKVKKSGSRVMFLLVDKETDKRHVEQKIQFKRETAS; partner HNRVKVYRF
Substitution,binding free energy change
L27N,1.11 kcal/mol
G21E,-0.0324 kcal/mol
T109M,-0.18 kcal/mol
V17N,0.179 kcal/mol
S83F,-0.137 kcal/mol
G35N,0.912 kcal/mol
Y37I,0.47 kcal/mol
E73C,0.0989 kcal/mol
G24S,1.5 kcal/mol
K102N,-0.0816 kcal/mol
G24P,1.3 kcal/mol
L89M,0.983 kcal/mol
G51Y,0.918 kcal/mol
K18T,0.382 kcal/mol
E67M,0.0585 kcal/mol
M48I,0.404 kcal/mol
K77Q,0.166 kcal/mol

# Sample 5 — method: RNA Bind-n-Seq; form: RNA; sample: in vitro; concentration: 365 nM; relative to: no-protein control; direction: higher = stronger binding
# Target: RNA binding protein fox-1 homolog 2, RRM domain, GST-SBP tag (RBFOX2, Homo sapiens, UniProt O43251-10, residues 100-194)
# Setting: natural RNA segment, single round, ends assumed
# Residues (chain): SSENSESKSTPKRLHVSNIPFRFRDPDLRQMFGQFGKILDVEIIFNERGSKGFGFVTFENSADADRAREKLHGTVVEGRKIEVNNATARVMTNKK
Oligonucleotide,RBNS enrichment (R)
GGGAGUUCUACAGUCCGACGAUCACCAAGACUUUAUAGCAGAUGGACCCAGAAAGAAUUUUCUGCUAUUGUGUUCACUACAACAGGAUAGGGACAUCAGACAGCCCCAGAAACCCCUUCCAGAUCUGAUAUGGUGGAAUUCUCGGGUGCCAA,0.335
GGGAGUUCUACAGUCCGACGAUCCUUCCCUGCCAGGUGCCUGUCACCUGUCUUCACUGCCUCCUUUUCCCUGUCAUGCUCAUCAGCUUAUGGCUUCUGUCUAAGCACCUGAACAGAGGACUGAAACCUCCACUUGGAAUUCUCGGGUGCCAA,0.596
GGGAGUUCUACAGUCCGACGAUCGAUGAGAAAUAAUUCACUUAAUAUCAGAAAUAUUUUCCAAACACUUUCCUUUAUUUUUUCUUCUGAAUAAAUAGAAAACCAACAGUUUGAUUUCCUUUUCCCUUAAAGGAUGGAAUUCUCGGGUGCCAA,0.401
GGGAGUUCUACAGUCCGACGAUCUGAGCAGCAUUCCUGGCCUCCAUCCACAAGAUACCUGUAGCAGUGUCCUGCCAACGGUAACAAUCAAGUAUGUCAUCAGACAUUGCCCAAUGUCCCCAGGGGGCAACACCUGGAAUUCUCGGGUGCCAA,0.205
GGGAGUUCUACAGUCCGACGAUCCUUAAGGAACUGCCCUGCCACUCACCCAGGUGACAGCCUGUAGCAGUGCAUGGAGACCCCUUUAGGCUCAGGGCUGCUCGAGCUCUGACUCUAACCCUGCUCCUUCCUAGUGGAAUUCUCGGGUGCCAA,0.348
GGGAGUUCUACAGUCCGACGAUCAAUUAAUUUAGCUGCAACCUUUUUAGGUAUUAAAUUACAUGACAAACAGUUAAAAUGAAUUUAAGAAUAAACAUAAGGCAUCGUUUUCAAUGAACAGUAAUAAUUUCCCAUGGAAUUCUCGGGUGCCAA,0.569
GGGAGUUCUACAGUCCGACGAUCACCCCGAUUGAAGUCUCUGAAACUUUCCUAUGGUUUUCUGUAUUAUAUGUCUGGAUGGAGCUGUUUAGAUACAUUGAUUGGUGGAUAUUUGGAGAAAGCAACAAAGAUAUUGGAAUUCUCGGGUGCCAA,0.707
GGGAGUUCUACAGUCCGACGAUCAAAGAUAAGCCCGCCAUGCUGGGCUGGGGAACUCUGAAGAAGACCAGCAACGAGUACCUUCUCCCGCCUUGCCUCAGCGUAGAAGGGCUGCACUCUUGGCUGGUGUGAGUUGGAAUUCUCGGGUGCCAA,1.06
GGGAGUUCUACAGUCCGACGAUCAUUUGCACCUGAGUUGUACAUUUUUGAAGUGUGCAGGGCAGCCUGGACACAAGCUUAGAUUCUCUAUGUAUAGUUCCCCGUGUUCACUAACAUGCCCUCUCUGGAAAGCAUGGAAUUCUCGGGUGCCAA,0.39
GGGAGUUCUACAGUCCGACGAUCUACCACUGAAGUAGAAUUGAUUGUUCAGCUGGAGCCCAGAGAAUUUAAUUUAAUGUUUUUUCUUUGUACCUGAUGUGAAUUCUAGCAACCUUUGUUAGGAAAAAGCACAGUGGAAUUCUCGGGUGCCAA,0.435
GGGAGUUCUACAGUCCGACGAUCGCAUAGGAGAAAAAAGUAUGAUUUAAAGAUGUGCUAGGGGGAGGGAAAAAUGGGCAACUUUUACAUUUGACUACAUUAUAUACCUAUGUAUAAAAGUGCGGUGUAACCAUUGGAAUUCUCGGGUGCCAA,1.24
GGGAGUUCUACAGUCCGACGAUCUGACAGAAUAAUUUUGGAAGAGGAAGCCUCAUCAAAAGCUCACACAAAAUAGAGCUUCCCAUGGUGUGCCCUAUCCUAGGUUUAAGAAAACACGUAUGAAGUUUAUGCUGUGGAAUUCUCGGGUGCCAA,0.291

# Sample 6 — method: DHFR PCA, deep sequencing; sample: yeast; together with: (+)-ABA 58 µM; relative to: wild-type fitted maximum; direction: higher = stronger binding
# Target: ABI1, truncated, D143A, DHFR fusion (Arabidopsis thaliana)
# Setting: methotrexate growth selection, single substitutions
# Parent: PYL1, truncated, DHFR fusion (Arabidopsis thaliana); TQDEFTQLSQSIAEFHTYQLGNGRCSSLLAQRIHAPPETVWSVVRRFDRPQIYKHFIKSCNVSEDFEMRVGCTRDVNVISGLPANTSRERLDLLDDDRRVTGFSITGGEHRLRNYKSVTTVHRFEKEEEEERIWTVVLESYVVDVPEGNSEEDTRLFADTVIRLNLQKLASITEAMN
Substitution,relative binding score
L28V,83.5%
G148H,68.9%
R24D,50.6%
S87Y,26.2%
S87D,-13.8%
L8P,25.6%
A35I,-1.71%
R88I,85.1%
D97P,59.9%
L112M,82.1%
R111T,9.3%
N61V,90.2%
Q19M,83.4%
N149S,80.7%
L20E,94.6%
L82Q,29%
D65T,80.7%
L20S,91.8%
L169V,9.71%
I105M,57%
P146N,24.9%

# Mixed results
Substance,target,assay,system,conditions,scale,endpoint,result
"PhoQ, residues 284 288 289 292 302 303 AGGCYF","PhoP, residues 12 14 15 18 19 GHCSL (Escherichia coli, UniProt P23836)","Sort-seq, refers to: YFP reporter",E. coli,"PhoQ-PhoP variant library, together with: 10 µM Mg2+","relative to: high Mg2+ state, higher = stronger signaling",fold induction,14.7

# Repeated from above (sample 3):
Modification,mean fluorescence intensity
2'F-ANA at 2 3 5 10 11 12,65.2 a.u.
2'F-ANA at 1 2 3 5 8 15,74.7 a.u.
2'F-ANA at 6 7 8 10 13 15,140 a.u.
2'F-ANA at 1 2 4 6 10 11,88.4 a.u.
2'F-ANA at 5 6 9 12,173 a.u.
2'F-ANA at 1 2 6 7 8 10 11 12 15,65.9 a.u.
2'F-ANA at 1 3 4 8 9 12 13 14,71.8 a.u.
2'F-ANA at 1 2 3 6 10 13 15,58.2 a.u.
